Measured values pooled from the literature.
Numbered parts are unrelated; each lists some results of a single study. Substitutions count along the parent as printed.

Sample 1
Target: TAR DNA-binding protein 43, full length, His tag (TARDBP, Homo sapiens, UniProt Q13148, residues 1-414)
Method: RNA Bind-n-Seq
Form: RNA
Sample: in vitro
Concentration: 20 nM
Notes: 6-mer, flanks averaged, single round
Added: 150 mM LiCl
Baseline: input library
Direction: higher = stronger binding
Strand	6-mer enrichment (R)
GCCCUG	1.02
CAAACU	0.818
CGGCGU	1
AGCCAC	0.9
UUUUGA	1.14
CGCGCU	0.929
GCUCAA	0.838
AGAUUC	0.825

Sample 2
Target: CEP164, C-terminal peptide (human)
Method: DHFR complementation, deep sequencing
Sample: yeast
Notes: single substitutions, model-inferred values
Baseline: wild type
Direction: higher = weaker binding
Starting sequence: PDZK1, PDZ domain 2 (human); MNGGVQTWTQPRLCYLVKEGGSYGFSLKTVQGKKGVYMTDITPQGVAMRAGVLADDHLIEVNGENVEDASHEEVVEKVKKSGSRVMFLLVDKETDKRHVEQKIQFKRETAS; partner HNRVKVYRF
Change	binding free energy change [kcal/mol]
D56E	0.731
V36E	0.624
K28A	-0.411
A69T	-0.141
G21M	-0.0386
K96H	-0.00651
I41K	1.36
K102M	-0.0728

Sample 3
Target: Fragile X messenger ribonucleoprotein 1, C-terminal low-complexity region (Fmr1, Mus musculus, UniProt P35922)
Method: RNA Bind-n-Seq
Form: RNA
Sample: in vitro
Concentration: 200 nM
Notes: whole 134-nt RNA, ends assumed
Added: 150 mM KCl
Baseline: input library
Direction: higher = stronger binding
Constant ends, left off below: GGGAGUUCUACAGUCCGACGAUC … UGGAAUUCUCGGGUGUCAAGG
Strand	log2 enrichment
GUCCUGUGCUACACAUCGUAUGUACCGAAUCGGGGUGGGGUUUUUGGGGUUUUUGGGGAAAGUAUUAUGUUACGCCGUUCGGAUCUGCAC	0.802
CCUCAAGUCCUGUGCUACACAUCGUAUGUACCGAAUCGGAGGUGGUUUUUGGAAAGUAUUAUGUUACGCCGUUCGGAUCUGCACUUCCAG	0.0606
CCUCAAGUCCUGUGCUACACAUCGUAUGUACCGAAUCGGUUUUUGGUGGAGGAAAGUAUUAUGUUACGCCGUUCGGAUCUGCACUUCCAG	0.301
UGGAUCAAGAGGAAGUAAAAAGAAUUACCAGUCACAGGCUGACAUUCCCAUUCGGUCUCCCUUUGGUAUUGUGAAAGCAUCCUGGCUACC	-0.098
GUCCUGUGCUACACAUCGUAUGUACCGAAUCGGGUUUGGGUUUUUGGGAAAAAAAGGGAAAGUAUUAUGUUACGCCGUUCGGAUCUGCAC	-0.00304
UCAAGUCCUGUGCUACACAUCGUAUGUACCGAAUCGGUUUGGAAAAAGGAAAGGAAAGUAUUAUGUUACGCCGUUCGGAUCUGCACUUCC	-0.447
GUCAAGAAAGAUCUUAAGACUGGUCAUUCAAAGGGGUUUGGCUUUGUUCGUUUUACGGAAUAUGAAACACAAGUGAAAGUAAUGUCACAG	-0.564
UAACUUGAGAGGAGGAUCUGAUGGAUAUGGCAGUGGACGUGGAUUUGGGGAUGGCUAUAAUGGGUAUGGAGGAGGACCUGGAGGUGGCAA	0.276

Further values, each from its own experiment
Starting sequence: viral docking peptide; TSVRRALFTGGSD
Change	target	assay	system	conditions	how to read	measurement	result
TSVRRAIFTGGSD [L7I]	CCNE2, cyclin fold, Cln2 fusion (human)	yeast growth competition, sequencing	yeast	strong parent motif	baseline: not given, higher = stronger binding	normalised enrichment score	0.522

Excerpt of the above (sample 1):
Strand	6-mer enrichment (R)
AGAUUC	0.825
GCUCAA	0.838
CGGCGU	1
